Measured values gathered from unrelated publications.
A part holds a random share of what one study measured. Changes are numbered by the printed parent chain.
Chain of UniProt P22607 (whole entry, unmodified, looked up): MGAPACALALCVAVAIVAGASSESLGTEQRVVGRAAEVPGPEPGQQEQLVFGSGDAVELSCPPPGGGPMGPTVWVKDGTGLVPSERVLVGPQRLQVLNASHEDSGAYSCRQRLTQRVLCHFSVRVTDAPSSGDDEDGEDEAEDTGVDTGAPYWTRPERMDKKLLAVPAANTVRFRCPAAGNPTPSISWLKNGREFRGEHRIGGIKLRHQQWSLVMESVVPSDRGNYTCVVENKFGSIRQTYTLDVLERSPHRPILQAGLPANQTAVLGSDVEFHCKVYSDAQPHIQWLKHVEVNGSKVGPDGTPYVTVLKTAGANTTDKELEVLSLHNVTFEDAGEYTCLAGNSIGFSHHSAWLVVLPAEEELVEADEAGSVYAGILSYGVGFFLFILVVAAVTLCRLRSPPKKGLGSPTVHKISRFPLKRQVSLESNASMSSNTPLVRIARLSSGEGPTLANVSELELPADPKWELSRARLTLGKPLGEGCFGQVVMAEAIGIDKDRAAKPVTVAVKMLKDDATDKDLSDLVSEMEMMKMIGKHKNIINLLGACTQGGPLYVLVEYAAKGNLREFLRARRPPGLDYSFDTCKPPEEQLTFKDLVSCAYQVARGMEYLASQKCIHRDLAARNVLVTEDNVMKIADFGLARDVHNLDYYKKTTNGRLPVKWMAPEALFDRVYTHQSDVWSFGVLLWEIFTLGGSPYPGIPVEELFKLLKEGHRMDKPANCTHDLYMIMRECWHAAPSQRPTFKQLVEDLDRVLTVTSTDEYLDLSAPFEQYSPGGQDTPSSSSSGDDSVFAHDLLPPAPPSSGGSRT
Chain of UniProt Q16288 (whole entry, looked up): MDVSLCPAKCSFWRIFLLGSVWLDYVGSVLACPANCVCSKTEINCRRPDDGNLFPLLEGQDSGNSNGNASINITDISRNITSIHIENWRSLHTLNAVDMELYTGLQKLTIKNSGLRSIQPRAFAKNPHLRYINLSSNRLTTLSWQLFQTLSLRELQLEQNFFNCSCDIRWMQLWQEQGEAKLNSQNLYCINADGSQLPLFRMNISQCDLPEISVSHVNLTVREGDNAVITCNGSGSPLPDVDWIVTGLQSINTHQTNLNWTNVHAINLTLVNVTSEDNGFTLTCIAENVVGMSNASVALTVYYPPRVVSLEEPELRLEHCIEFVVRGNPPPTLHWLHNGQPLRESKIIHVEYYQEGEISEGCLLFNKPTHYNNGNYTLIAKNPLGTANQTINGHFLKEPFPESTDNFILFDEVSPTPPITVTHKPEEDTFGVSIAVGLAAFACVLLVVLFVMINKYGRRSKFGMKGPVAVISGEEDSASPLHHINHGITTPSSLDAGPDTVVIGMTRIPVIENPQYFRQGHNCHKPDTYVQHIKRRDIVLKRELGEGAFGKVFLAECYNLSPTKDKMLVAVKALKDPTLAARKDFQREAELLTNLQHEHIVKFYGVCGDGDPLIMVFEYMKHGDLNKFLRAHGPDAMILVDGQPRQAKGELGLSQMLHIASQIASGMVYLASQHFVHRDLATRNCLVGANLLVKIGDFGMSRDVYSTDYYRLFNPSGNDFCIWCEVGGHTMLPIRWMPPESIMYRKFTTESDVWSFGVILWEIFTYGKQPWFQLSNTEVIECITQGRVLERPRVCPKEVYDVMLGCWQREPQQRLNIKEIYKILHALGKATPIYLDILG
Chain of UniProt Q9UIK4 (whole entry, looked up): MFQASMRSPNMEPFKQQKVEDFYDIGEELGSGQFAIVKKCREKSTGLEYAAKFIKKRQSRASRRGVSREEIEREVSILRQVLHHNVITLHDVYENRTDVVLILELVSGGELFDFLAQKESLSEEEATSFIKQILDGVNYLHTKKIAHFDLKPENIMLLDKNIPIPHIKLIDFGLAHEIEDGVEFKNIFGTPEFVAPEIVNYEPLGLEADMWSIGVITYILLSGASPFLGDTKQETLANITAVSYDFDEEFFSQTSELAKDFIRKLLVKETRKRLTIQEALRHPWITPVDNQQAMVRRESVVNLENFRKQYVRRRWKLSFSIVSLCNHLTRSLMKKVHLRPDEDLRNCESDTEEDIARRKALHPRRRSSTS
Chain of UniProt Q9H2G2 (whole entry, looked up): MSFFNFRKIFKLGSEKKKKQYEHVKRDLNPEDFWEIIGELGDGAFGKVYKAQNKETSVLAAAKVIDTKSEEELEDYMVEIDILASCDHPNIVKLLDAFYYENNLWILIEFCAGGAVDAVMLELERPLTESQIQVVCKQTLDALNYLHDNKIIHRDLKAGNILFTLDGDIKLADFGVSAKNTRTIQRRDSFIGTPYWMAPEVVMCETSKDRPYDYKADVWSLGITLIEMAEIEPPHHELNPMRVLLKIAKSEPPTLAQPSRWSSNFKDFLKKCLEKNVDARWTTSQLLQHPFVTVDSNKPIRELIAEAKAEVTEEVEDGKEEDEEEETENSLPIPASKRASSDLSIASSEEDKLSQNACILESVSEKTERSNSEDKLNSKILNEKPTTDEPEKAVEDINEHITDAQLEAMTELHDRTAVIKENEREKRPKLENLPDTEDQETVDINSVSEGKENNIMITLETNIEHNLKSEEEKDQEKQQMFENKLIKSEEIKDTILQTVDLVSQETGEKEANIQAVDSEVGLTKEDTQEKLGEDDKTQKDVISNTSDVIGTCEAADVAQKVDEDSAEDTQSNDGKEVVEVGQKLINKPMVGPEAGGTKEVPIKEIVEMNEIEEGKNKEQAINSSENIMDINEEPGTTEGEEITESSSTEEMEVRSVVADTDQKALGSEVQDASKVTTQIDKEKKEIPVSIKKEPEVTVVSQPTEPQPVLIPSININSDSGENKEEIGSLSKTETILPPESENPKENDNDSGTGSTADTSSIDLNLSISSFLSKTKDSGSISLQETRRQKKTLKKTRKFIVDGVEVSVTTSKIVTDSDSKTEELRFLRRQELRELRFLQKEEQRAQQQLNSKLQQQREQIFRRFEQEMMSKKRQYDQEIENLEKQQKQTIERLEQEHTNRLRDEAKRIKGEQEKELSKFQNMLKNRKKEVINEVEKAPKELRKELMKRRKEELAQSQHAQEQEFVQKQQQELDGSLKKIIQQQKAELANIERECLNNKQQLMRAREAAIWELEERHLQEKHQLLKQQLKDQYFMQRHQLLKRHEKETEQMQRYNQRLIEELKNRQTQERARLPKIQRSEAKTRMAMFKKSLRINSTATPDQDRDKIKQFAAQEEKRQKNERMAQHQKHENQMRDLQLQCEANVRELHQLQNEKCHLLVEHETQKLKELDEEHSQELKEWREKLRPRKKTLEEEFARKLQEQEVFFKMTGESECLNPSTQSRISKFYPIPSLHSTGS
Chain of UniProt P15735 (whole entry, looked up): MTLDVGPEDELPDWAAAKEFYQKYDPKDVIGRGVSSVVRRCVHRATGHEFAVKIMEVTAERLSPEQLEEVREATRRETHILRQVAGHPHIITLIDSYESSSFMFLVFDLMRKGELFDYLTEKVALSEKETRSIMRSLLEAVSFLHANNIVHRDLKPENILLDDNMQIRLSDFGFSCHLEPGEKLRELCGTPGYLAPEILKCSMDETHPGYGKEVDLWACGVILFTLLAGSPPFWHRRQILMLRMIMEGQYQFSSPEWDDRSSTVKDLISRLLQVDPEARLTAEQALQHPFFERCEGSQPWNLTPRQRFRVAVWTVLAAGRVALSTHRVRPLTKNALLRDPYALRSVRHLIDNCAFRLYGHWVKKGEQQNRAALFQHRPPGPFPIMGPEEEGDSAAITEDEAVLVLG
Chain of UniProt Q13976 (whole entry, looked up): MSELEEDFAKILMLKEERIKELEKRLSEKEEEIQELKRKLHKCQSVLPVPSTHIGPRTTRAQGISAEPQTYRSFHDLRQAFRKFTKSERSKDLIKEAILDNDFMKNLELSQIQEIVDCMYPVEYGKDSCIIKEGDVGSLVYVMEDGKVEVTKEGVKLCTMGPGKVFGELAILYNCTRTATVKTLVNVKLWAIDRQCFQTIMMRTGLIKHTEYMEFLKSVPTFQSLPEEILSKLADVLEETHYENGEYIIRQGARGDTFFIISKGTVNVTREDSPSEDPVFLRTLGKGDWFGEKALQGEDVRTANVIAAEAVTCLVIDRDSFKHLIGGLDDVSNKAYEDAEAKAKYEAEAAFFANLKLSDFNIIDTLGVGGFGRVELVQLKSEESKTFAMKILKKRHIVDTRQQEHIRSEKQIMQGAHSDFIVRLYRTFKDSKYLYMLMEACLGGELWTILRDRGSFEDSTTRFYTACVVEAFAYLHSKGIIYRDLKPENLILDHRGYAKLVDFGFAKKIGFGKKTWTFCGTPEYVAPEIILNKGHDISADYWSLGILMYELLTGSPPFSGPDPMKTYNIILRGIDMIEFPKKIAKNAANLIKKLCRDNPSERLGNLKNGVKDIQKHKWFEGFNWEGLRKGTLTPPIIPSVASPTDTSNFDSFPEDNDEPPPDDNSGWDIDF
Chain of UniProt Q00526 (whole entry, looked up): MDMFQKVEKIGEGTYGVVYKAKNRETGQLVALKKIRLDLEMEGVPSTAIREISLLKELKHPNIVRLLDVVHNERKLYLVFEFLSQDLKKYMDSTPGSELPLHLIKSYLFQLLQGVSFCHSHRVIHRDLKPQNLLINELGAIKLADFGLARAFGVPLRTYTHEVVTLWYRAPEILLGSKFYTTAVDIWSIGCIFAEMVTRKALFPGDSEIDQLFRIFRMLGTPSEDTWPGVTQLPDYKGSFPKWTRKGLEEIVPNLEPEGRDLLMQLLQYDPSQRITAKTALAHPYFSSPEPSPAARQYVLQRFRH

Block 1
SMILES: Nc1nccc(-c2c(-c3ccc(F)cc3)ncn2C2CCNCC2)n1
Read-out: enzyme activity
Mode: inhibitor
Tested at: 0.5 µM
Reference: control
| target | remaining activity [%] |
| --- | --- |
| STK39 (Homo sapiens, UniProt Q9UEW8) | 93.5 |
| STK11 (Homo sapiens, UniProt Q15831) | 89.1 |
| PRKACA (Homo sapiens, UniProt P17612) | 83 |
| IKBKE (Homo sapiens, UniProt Q14164) | 99.5 |
| MAP3K3 (Homo sapiens, UniProt Q99759) | 101 |
| IKBKB (Homo sapiens, UniProt O14920) | 104 |
| Protein kinase C beta type, isoform beta-I (PRKCB, Homo sapiens, UniProt P05771) | 91 |
| TGFBR2 (Homo sapiens, UniProt P37173) | 119 |
| NEK2 (Homo sapiens, UniProt P51955) | 103 |
| TGFBR1 (Homo sapiens, UniProt P36897) | 102 |
| STK10 (Homo sapiens, UniProt O94804) | 90.3 |
| DAPK2 (Homo sapiens, UniProt Q9UIK4) | 94.1 |
| cGMP-dependent protein kinase 1, isoform beta (PRKG1, Homo sapiens, UniProt Q13976) | 88.2 |
| CAMK2D (Homo sapiens, UniProt Q13557) | 100 |

Block 2
Target: CCND1, cyclin fold, Cln2 fusion (human)
Technique: yeast growth competition, sequencing
Matrix: yeast
Notes: weak parent motif
Reference: not given
Direction: higher = stronger binding
Starting sequence: REPIN1 docking peptide (human); QSFRGWVALVLHL
| Change | normalised enrichment score |
| --- | --- |
| ASFRGWVALVLHL [Q1A] | 0.365 |
| QSARGWVALVLHL [F3A] | 0.857 |
| QSFRGWAALVLHL [V7A] | 1.17 |
| QSFRGAVALVLHL [W6A] | 0.213 |
| QAFRGWVALVLHL [S2A] | 0.38 |
| QSFAGWVALVLHL [R4A] | 0.0325 |

Block 3
SMILES: CC(=O)c1c(NS(C)(=O)=O)c2cc(-c3ccc(Cl)cc3)c(-c3ccc(Cl)cc3Cl)nc2n(C)c1=O
Technique: competition with immobilised ligand
Tested at: 1 µM
| target | assay | remaining binding |
| --- | --- | --- |
| FGFR3 (Homo sapiens, UniProt P22607) | cell-free assay | 100% |
| MYLK3 (Homo sapiens, UniProt Q32MK0) | cell-free assay | 91% |
| SLK (Homo sapiens, UniProt Q9H2G2) | cell-free assay | 100% |
| PRKCQ (Homo sapiens, UniProt Q04759) | cell-free assay | 100% |
| ULK1 (Homo sapiens, UniProt O75385) | cell-free assay | 67% |
| CAMKK1 (Homo sapiens, UniProt Q8N5S9) | cell-free assay | 100% |
| Ribosomal protein S6 kinase alpha-6, N-terminal kinase domain (RPS6KA6, Homo sapiens, UniProt Q9UK32) | cell-free assay | 76% |
| RET (Homo sapiens, UniProt P07949, V804L) | cell-free assay | 100% |
| MAPK1 (Homo sapiens, UniProt P28482) | cell-free assay | 100% |
| Tyrosine-protein kinase ABL1, phosphorylated (ABL1, Homo sapiens, UniProt P00519, E255K) | binding | 100% |
| EGFR (Homo sapiens, UniProt P00533) | cell-free assay | 100% |
| CDK3 (Homo sapiens, UniProt Q00526) | cell-free assay | 100% |
| PHKG2 (Homo sapiens, UniProt P15735) | cell-free assay | 100% |
| NTRK3 (Homo sapiens, UniProt Q16288) | cell-free assay | 98% |
| Tyrosine-protein kinase ABL1, non-phosphorylated (ABL1, Homo sapiens, UniProt P00519, Q252H) | cell-free assay | 100% |
| Tyrosine-protein kinase JAK1, JH1 (JAK1, Homo sapiens, UniProt P23458) | cell-free assay | 76% |
| FGFR3 (Homo sapiens, UniProt P22607, G697C) | cell-free assay | 100% |
| OXSR1 (Homo sapiens, UniProt O95747) | cell-free assay | 79% |

Block 4
Target: Eukaryotic initiation factor 4A-I (EIF4A1, Homo sapiens, UniProt P60842, residues 1-406, full length assumed)
Chain of UniProt P60842 (whole entry, looked up): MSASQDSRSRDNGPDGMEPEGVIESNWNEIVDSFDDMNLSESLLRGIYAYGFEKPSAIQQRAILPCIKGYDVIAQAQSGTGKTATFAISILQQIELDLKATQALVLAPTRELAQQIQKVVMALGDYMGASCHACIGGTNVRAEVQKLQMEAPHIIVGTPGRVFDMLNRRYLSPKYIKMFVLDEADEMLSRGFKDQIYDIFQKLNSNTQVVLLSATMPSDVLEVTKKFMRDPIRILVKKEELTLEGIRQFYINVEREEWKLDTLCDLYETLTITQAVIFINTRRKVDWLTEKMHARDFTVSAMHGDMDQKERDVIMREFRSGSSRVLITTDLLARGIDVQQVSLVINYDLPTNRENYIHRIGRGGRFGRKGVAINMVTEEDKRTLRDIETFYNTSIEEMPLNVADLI
Technique: RNA Bind-n-Seq
Molecule type: RNA
Matrix: in vitro
Tested at: 90 pmol
Notes: 4-mer, random 30-nt RNA, single round
Added: 3 µM DMDA-PatA, 2 mM ADP, 2 mM phosphate
Reference: input library
Direction: higher = stronger binding
| Sequence | 4-mer enrichment [fold] |
| --- | --- |
| CUCG | 0.518 |
| CAGG | 0.879 |
| CCUU | 0.576 |
| UCUC | 0.574 |
| CCGG | 0.594 |
| UGUC | 0.718 |
| AAGG | 1.22 |
| ACCA | 0.682 |

Repeated from above (block 3):
| target | assay | remaining binding |
| --- | --- | --- |
| RET (Homo sapiens, UniProt P07949, V804L) | cell-free assay | 100% |
| ULK1 (Homo sapiens, UniProt O75385) | cell-free assay | 67% |
| Ribosomal protein S6 kinase alpha-6, N-terminal kinase domain (RPS6KA6, Homo sapiens, UniProt Q9UK32) | cell-free assay | 76% |
| NTRK3 (Homo sapiens, UniProt Q16288) | cell-free assay | 98% |
| CAMKK1 (Homo sapiens, UniProt Q8N5S9) | cell-free assay | 100% |
